Assay results gathered from unrelated publications.
Compare with care: the assays were run in different laboratories. ± marks the error that the study gave.
Target: Mu-type opioid receptor (Oprm1, Rattus norvegicus, UniProt P33535)
Sequence of UniProt P33535 (whole entry, looked up): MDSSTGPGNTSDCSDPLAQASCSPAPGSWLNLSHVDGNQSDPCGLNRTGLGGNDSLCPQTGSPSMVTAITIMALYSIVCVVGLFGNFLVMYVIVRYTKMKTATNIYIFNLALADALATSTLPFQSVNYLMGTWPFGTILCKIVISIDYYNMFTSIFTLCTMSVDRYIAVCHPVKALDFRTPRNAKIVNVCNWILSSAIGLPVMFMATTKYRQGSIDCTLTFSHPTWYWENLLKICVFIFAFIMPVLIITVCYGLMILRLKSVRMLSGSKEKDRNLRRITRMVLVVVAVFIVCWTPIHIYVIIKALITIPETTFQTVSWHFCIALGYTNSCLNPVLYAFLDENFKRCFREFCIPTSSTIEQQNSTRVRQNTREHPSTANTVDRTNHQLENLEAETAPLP

Structure (SMILES) | assay | test system | setting | endpoint | value
CCCC[C@@H]1NC(=O)[C@H](Cc2ccccc2)NC(=O)CNC(=O)[C@H](NC(=O)[C@@H](N)Cc2ccc(O)cc2)C(C)(C)SSC(C)(C)[C@H](C(=O)N[C@@H](Cc2c[nH]c3ccccc23)C(=O)NCc2cc(C(F)(F)F)cc(C(F)(F)F)c2)NC(=O)[C@@H]2CCCN2C1=O | agonist | – | – | EC50 | 140 nM
Cc1cc(O)cc(C)c1CC(N)C(=O)NC1CCNc2ccc(CN3CCOCC3)cc21 (stereo not shown) | GTPγS binding, agonist, radiometric | – | cell membranes | EC50 | 60 nM
COC(=O)N(C)[C@@H](Cc1ccccc1)C(=O)N[C@@H](Cc1ccccc1)C(=O)N[C@@H](Cc1ccc(O)cc1)C(=O)N[C@@H](CCCNC(=N)N)C(=O)N[C@@H](CC(C)C)C(=O)N[C@@H](CCCNC(=N)N)C(=O)N[C@@H](CCCNC(=N)N)C(=O)N[C@H](C)C(=O)N[C@@H](CCCNC(=N)N)C(=O)N1CCC[C@H]1C(=O)N[C@@H](CCCCN)C(N)=O | ligand displacement, radioligand | – | – | Ki | 1300 nM
Cc1cc(O)cc(C)c1CC(N)C(=O)NC1CCNc2ccc(CN3CCCCCC3)cc21 (stereo not shown) | GTPγS binding, agonist, radiometric | – | cell membranes | EC50 | 25 nM
CCNC(=O)c1cc(Cc2ccccc2)cc2c1NCCC2NC(=O)C(N)Cc1c(C)cc(O)cc1C (stereo not shown) | ligand displacement, radioligand | – | cell membranes | Ki | 0.2 nM
CC[C@H](C)[C@H](NC(=O)[C@@H](N)Cc1ccc(O)cc1)C(=O)N[C@@H](Cc1ccccc1)C(=O)N[C@@H](CC(N)=O)C(=O)N[C@@H](CC(C)C)C(=O)O | binding | rat brain membranes | together with: [3H]DAMGO | IC50 | 181 ± 2.3e-06 nM
Cc1cc(O)cc(C)c1CC(N)C(=O)NC1CCNc2c(C(=O)O)cc(Cc3ccccc3)cc21 (stereo not shown) | GTPγS binding, agonist, radiometric | – | cell membranes | EC50 | 4.4 nM
CC(C)C[C@H](NC(=O)[C@H](Cc1cccc2ccccc12)NC(=O)CNC(=O)[C@H](NC(=O)[C@@H](N)Cc1ccc(O)cc1)[C@H](C)O)C(=O)N[C@@H](CO)C(N)=O | GTPγS binding, agonist, radiometric | – | cell membranes | EC50 | 31 nM
Cc1cc(O)cc(C)c1CC(N)C(=O)NC1CCNc2ccc(Cc3ccc4c(c3)OCO4)cc21 (stereo not shown) | GTPγS binding, agonist, radiometric | – | cell membranes | EC50 | 14 nM
Cc1cc(O)cc(C)c1CC(N)C(=O)NC1CCNc2c(C)cc(Cc3ccccc3)cc21 (stereo not shown) | GTPγS binding, agonist, radiometric | – | cell membranes | EC50 | 4.2 nM

A few entries again:
Structure (SMILES) | assay | test system | setting | endpoint | value
Cc1cc(O)cc(C)c1CC(N)C(=O)NC1CCNc2ccc(CN3CCCCCC3)cc21 (stereo not shown) | GTPγS binding, agonist, radiometric | – | cell membranes | EC50 | 25 nM
